# Measurements gathered from unrelated publications.
# A part holds a random share of what one study measured.

# Set 1
# Target: Histone acetyltransferase KAT6A, winged helix 1, GST fusion (KAT6A, Homo sapiens, UniProt Q92794, residues 1-85)
# Method: protein binding microarray
# Form: double-stranded DNA, one strand shown
# Sample: in vitro
# Concentration: not given
# Setting: 8-mer, flanks averaged, mean of 2 arrays, mostly near background
# Reference: not given
# Reading: higher = stronger binding
# Target sequence (chain): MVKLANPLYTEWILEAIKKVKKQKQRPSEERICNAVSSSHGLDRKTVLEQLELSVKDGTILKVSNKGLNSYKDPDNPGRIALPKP
Strand,E-score
CCAGACCC,0.0281
AATGCGAG,-0.142
AGCGTCCC,0.0636
ACTCAGAC,-0.0571
ATCGACAG,-0.0796
ACCCGACT,0.0742
GGATATTA,-0.0349
ATCCTACC,-0.0253
GCTACCAC,-0.0747
GTGCTACA,-0.223
ACTTCGTG,-0.129
TCCAGCGA,-0.135
ACGAACCA,-0.0847
AGAGAGAT,-0.257
GAGCCGAA,0.0974
AGCGAGTC,0.0592
GCGCGCCC,0.426
CGTCGACC,-0.0714
AAGTCGAA,-0.233
AATGGGAA,-0.352
CATGTTTA,-0.0102
AACCCTGC,-0.125
AGTCTAAC,0.0255
CTAACTCA,-0.229
ACCGTATA,0.16

# Set 2
# Target: RNA binding protein fox-1 homolog 2, RRM domain, GST-SBP tag (RBFOX2, Homo sapiens, UniProt O43251-10, residues 100-194)
# Method: RNA Bind-n-Seq
# Form: RNA
# Sample: in vitro
# Concentration: 365 nM
# Setting: natural RNA segment, single round, ends assumed
# Reference: no-protein control
# Reading: higher = stronger binding
# All sequences stand within: GGGAGUUCUACAGUCCGACGAUC … UGGAAUUCUCGGGUGCCAA
# Target sequence (chain): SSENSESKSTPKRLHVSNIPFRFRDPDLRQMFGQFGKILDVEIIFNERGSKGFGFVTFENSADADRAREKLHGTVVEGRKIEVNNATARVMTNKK
Strand,RBNS enrichment (R)
GAAUCAAUGAGUGAGAAUACUAGUACUGAUUCUUUACAAUAAUAAUAUCUUAAGAGUAUUGAUAUCUUUCAUUUUUUCAUCCAGCAGUCUAGUGCCCAGCUGCUGACAAU,0.416
AGUAAUUGUCUUUUCAGAUGGAAACUAGAGAACUCUCCUAGGUGUGAUCUGCACUGGCCACUUGGCAGGCACAAGCUGCUUCCUUCCCCUCAGGUCUUAACCCUUCCCAG,0.765
UAAUCACCAUAUUGUAAAAUUUUGUGUUUUUAAAGCCAACUCUUUGCUCCGGUUUUUUCAUACGACUUAGUAUGGGGCAAAAAAGCAAUGUGAAGAAUCAACUCUAGGGU,0.344
GCACUGGGCUGAGGGGGUCUCAGCUGGUCUGGAGUCCAGACCUCGCCAUCCCCUGCCCACCAUUGCCGUGGAGGGGGCUGCCAGGCAUAGCUGCUGUGAGCCAUGUCCUU,0.336
GAGCAGCGCUCAAGGCUCUCGCCCCUCCCCUCCCUAACCCUUACCUUCAGUCUCCACCAGCCUGAAGGGCCUCCUAGGGGAUCCUCAGGCGGCCCCCACCAGGGCACACC,0.359
GUUUUGUCAUAUAAAAAGUUUAUAAAUGUUUGCUAUCAGACUGACAUUAAAUAGAAGCUAUGAUGAACACCUGGCGGGGUUUGUUCUCUCUCCAAUGCUCCGAGUCCACU,0.199
AGAUGGUUUUUGUUAAAUCUACUAAUAAACUGUUCUCUUAGUAGAUUAAGAGAGAGUAAUAUUAAUUGUGCAUGUGCAGUUGUAUUUCUCAUUAACUGACAGUAUGCCCA,3.83
AACAAAAACAAGUCCCAUGUCCUACUGACUCUAGUUCUUCCAGUCGUUAUCCUCUGCUGUCUCUCUGGCAUCCUAUGAAUCAGAUCAAGCCCAUGCUGUUGUUGGUUUUU,0.754
AUCUGACUACCCCUGAAUCCACCCAGAAAGGGGGCCCAACACCCUUGUCCAUUUAUGGGUAUUUUUUUUCGAAGUUAUUAAGCAUAUUCCUUUUCCACGAACCUCUUCUG,0.717
CCCCCAGGUGUUGCCAUUUCUCUGCUUACCCUUCACCUUUGGUGCAGAGGUUUCUUGAAUAUCUGCCCCAGUAGUCAGAAGCAGGUUCUUGAUGUCAUGUACUUCCUGUG,0.291
CUCUCCCACCCUUCCUGAACCAUGACCACCACCAGCUCUAGGGUCGUAAUGUUGGAGAUCAGGAAUAUUGGUUGUGAUGACAAGAAAGAGCCCACUUACUCCUCCUCGUU,0.533
GUCCACGUCUCCCGUGAUUGCCAGUGCUAAUAUGGCUGGGGCUGAGACUUUGCAAGGCCUAAUGCCAAAGGACACAAGGCCUGUGUGGUGUCUGCCACACUCAGCAGGCC,0.33

# Set 3
# Target: Sal-like protein 4, full length isoform B (SALL4, Homo sapiens, UniProt Q9UJQ4-2, residues 1-616)
# Method: universal PBM
# Form: double-stranded DNA, one strand shown
# Sample: in vitro
# Concentration: not given
# Setting: 8-mer, flanks averaged, mean of replicates
# Reading: higher = stronger binding
Strand,E-score
CAAAAAGC,0.186
AACGGCAG,-0.199
CTCAAGTA,0.148
AGCCACGA,-0.197
AGTATGGA,0.249
CTGGGTCC,-0.237
GGTGAGCA,-0.199
CCCAATCA,-0.0726
AAAGGGGC,-0.0782
AGCGGGTG,-0.19
CTAAATGA,0.161
GGCTGCTA,-0.0424
GGGGCAAC,-0.216
CACGGCAC,-0.18
CCACTTTC,0.017
CGCTTCTA,-0.00696
GTGTCTCA,-0.0198
CGCGGAGC,-0.33
CAATGCTG,-0.00986
ACTAGCAA,0.132
GTACCAAA,0.0684
CTCAGATA,0.0931
GGAACACC,-0.169
GACGTGAC,-0.045

# Set 4
# Target: Interferon regulatory factor 3, full length, phosphomimetic (IRF3, Homo sapiens, UniProt Q14653, residues 1-427, S386D/S396D/S398D/S402D/T404D/S405D)
# Method: protein-binding microarray
# Form: double-stranded DNA, one strand shown
# Sample: in vitro
# Concentration: 2540 nM top
# Setting: 60-bp whole probe
# Added: salmon DNA 0.4 mg/ml
# Reference: random background probes
# Reading: higher = stronger binding
# All sequences stand within: GCCTAGCAC … GTCTTGATTCGCTTGACGCTGCTG
# Construct (chain): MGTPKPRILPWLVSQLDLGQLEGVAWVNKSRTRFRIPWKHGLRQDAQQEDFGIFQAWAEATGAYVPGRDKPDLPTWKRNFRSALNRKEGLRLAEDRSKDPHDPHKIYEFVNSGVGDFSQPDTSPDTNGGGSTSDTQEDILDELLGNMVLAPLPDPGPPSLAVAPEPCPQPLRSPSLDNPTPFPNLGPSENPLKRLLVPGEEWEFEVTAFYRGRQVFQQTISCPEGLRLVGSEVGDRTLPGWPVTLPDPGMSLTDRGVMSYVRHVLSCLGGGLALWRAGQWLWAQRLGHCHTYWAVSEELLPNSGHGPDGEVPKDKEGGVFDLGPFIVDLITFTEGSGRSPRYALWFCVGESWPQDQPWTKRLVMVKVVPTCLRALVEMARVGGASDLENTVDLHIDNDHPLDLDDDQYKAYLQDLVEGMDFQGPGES
Strand,fitted relative affinity
TTAGAACTGAGTTTCGATTGGTGCTAG,1.52 z-score
CTAGGTCTCGGACTGGGTTAGTGCTAG,-0.16 z-score
GACGAGTTCGGGTATCGAGACGTGCTA,-0.0472 z-score
GACTATATCGGGACTGGAGACGTGCTA,0.163 z-score
GACGGTCTCCTACTGCAGACGTGCTAG,1.24 z-score
GACGGTATCTGGTATCGGGACGTGCTA,1.08 z-score
AAGTGTTTGGTGTCTTTTGTGGTGCTA,-0.582 z-score
GACGGTATCCTACCGCTGACGTGCTAG,1.79 z-score
TAAGGTTTCGACTATCGGTTAGTGCTA,2.38 z-score
CTTTAGAGCAAGAACAGCCTGTGCTAG,-0.256 z-score
GTAGGACTGGACTATCGGTTAGTGCTA,-0.513 z-score
TTAGAACTGGGATATCGATTAGTGCTA,-0.395 z-score
TTAGGACTGCACTATCGGTTAGTGCTA,-0.142 z-score
TCAGCCCTCCCTGTGGGACTGTGCTAG,-0.863 z-score
TGCCCCCACACTCCTAGCACGTGCTAG,-0.114 z-score
GACGATATCGGGCATCGAGACGTGCTA,-0.324 z-score
TACGATTTCGGGTTTCGAGACGTGCTA,2.43 z-score
TCAGTTTTCTTTTCCATTTTGTGCTAG,7.55 z-score

# Set 5
# Target: Fragile X messenger ribonucleoprotein 1, C-terminal low-complexity region (Fmr1, Mus musculus, UniProt P35922)
# Method: RNA Bind-n-Seq
# Form: RNA
# Sample: in vitro
# Concentration: 200 nM
# Setting: whole 134-nt RNA, ends assumed
# Added: 150 mM KCl
# Reference: input library
# Reading: higher = stronger binding
# All sequences stand within: GGGAGUUCUACAGUCCGACGAUC … UGGAAUUCUCGGGUGUCAAGG
Strand,log2 enrichment
UCCUCAAGUCCUGUGCUACACAUCGUAUGUACCGAAUCGGGUGGGUGGGUGGAAAGUAUUAUGUUACGCCGUUCGGAUCUGCACUUCCAG,1.56
UGUGCUACACAUCGUAUGUACCGAAUCGGGGUUUUUUUGGGGUUUUUGGGGAAAAAAAGGGGAAAGUAUUAUGUUACGCCGUUCGGAUCU,0.0481
UCCUGUGCUACACAUCGUAUGUACCGAAUCGGGUUUUUUUGGGAAAAAAAGGGAAAGGGAAAGUAUUAUGUUACGCCGUUCGGAUCUGCA,-0.234
ACCAUGCAGGUGGGCAUCUUGGGGAAGUGGGGCAAGGGGGGGAUAGGGAGGGGGGUAACACUUUGGGAACAGGUGGUCCCAGGUCGUUUC,0.813
UUGCAGCAACUGCUACCAGCCUCCCAGUCCACACAGCUGCCAUGCUCAAGUUCCCCUCAGGAGACCACCCAGUCUCGCCCUAUGCCGCCG,0.252
UAGGGUUCAGGAUAAGUUUGAGGUGCUGAAUUACACAAGCAUUCCUAUCUUUCUCCCGGAAGUCACCAUUGGAGCUCAUCAGACUGACCG,-0.76
ACCAUGCAGGUGGGCAUCUUUGGGAAGUGGGGCUAGGGGGGGAUAGGGAGGGGGGUAACACUUUGGGAACAGGUGGUCCCAGGUCGUUUC,0.715
UGCCAGGCCCACCCCCAGGUGUUCCCGCGCCUGGGGGCCCACCCCUGUCCACCGGACCUAUAGUGGACCUGCUCCAGUACAGCCAGAAGG,0.47
ACCAUGCAGGUGGGCAUCUUUGGGAAGUGGGGCCAGGGGGGGAUAGGGAGGGGGGUAACACUUUGGGAACAGGUGGUCCCAGGUCGUUUC,0.941
CUGUGCUACACAUCGUAUGUACCGAAUCGGGCCCCCCCGGCCCCCCCGGGCCCCCCCGGGGAAAGUAUUAUGUUACGCCGUUCGGAUCUG,-1.11
UCAAGUCCUGUGCUACACAUCGUAUGUACCGAAUCGGGUGGGUGGGUUUUUGGGAAAGUAUUAUGUUACGCCGUUCGGAUCUGCACUUCC,1.02
AGUCCUGUGCUACACAUCGUAUGUACCGAAUCGGAAAAAAAGGUUUGGUUUUUUUGGAAAGUAUUAUGUUACGCCGUUCGGAUCUGCACU,-1.26
UAACUUUAGAGGAGGAUCUGAUGGAUAUGGCAGUGGACGUGGAUUUGGGGAUGGCUAUAAUGGGUAUGGAGGAGGACCUGGUGGUGGCAA,0.217
UGGGAGGUGGAUUUUGUUUAUUUUUUUAGCUCAUUUCCAGGGGUGGGAAUUUUUUUUUAAUAUGUGUCAUGAAUAAAGUUGUUUUUGAAC,0.332

# Repeated from above (set 5):
Strand,log2 enrichment
UAGGGUUCAGGAUAAGUUUGAGGUGCUGAAUUACACAAGCAUUCCUAUCUUUCUCCCGGAAGUCACCAUUGGAGCUCAUCAGACUGACCG,-0.76
ACCAUGCAGGUGGGCAUCUUUGGGAAGUGGGGCUAGGGGGGGAUAGGGAGGGGGGUAACACUUUGGGAACAGGUGGUCCCAGGUCGUUUC,0.715
UGCCAGGCCCACCCCCAGGUGUUCCCGCGCCUGGGGGCCCACCCCUGUCCACCGGACCUAUAGUGGACCUGCUCCAGUACAGCCAGAAGG,0.47
ACCAUGCAGGUGGGCAUCUUUGGGAAGUGGGGCCAGGGGGGGAUAGGGAGGGGGGUAACACUUUGGGAACAGGUGGUCCCAGGUCGUUUC,0.941
CUGUGCUACACAUCGUAUGUACCGAAUCGGGCCCCCCCGGCCCCCCCGGGCCCCCCCGGGGAAAGUAUUAUGUUACGCCGUUCGGAUCUG,-1.11
UCAAGUCCUGUGCUACACAUCGUAUGUACCGAAUCGGGUGGGUGGGUUUUUGGGAAAGUAUUAUGUUACGCCGUUCGGAUCUGCACUUCC,1.02
AGUCCUGUGCUACACAUCGUAUGUACCGAAUCGGAAAAAAAGGUUUGGUUUUUUUGGAAAGUAUUAUGUUACGCCGUUCGGAUCUGCACU,-1.26
UAACUUUAGAGGAGGAUCUGAUGGAUAUGGCAGUGGACGUGGAUUUGGGGAUGGCUAUAAUGGGUAUGGAGGAGGACCUGGUGGUGGCAA,0.217
